Measurements pooled from the literature.
Values joined by “and” are separate records of one study, mostly repeats; a detail may differ. Numbers after ± are the reported error.

For `CC1(C)c2cc(CC(=O)c3ccc(O)cc3O)c(O)cc2OC1CO` (centres unmarked), the IC50 was 74.3 µM (Hepa1c1c7; cell growth).
The IC50 of `Cc1cc(C2CCCCC2)n(O)c(=O)c1` is reported as 5.98 ± 1 µM (NIH3T3; resazurin; 250 cells per well).
The IC50 of `COc1cc(C(=O)c2sc3cc(C)ccc3c2NC(=O)CCl)cc(OC)c1OC` is reported as 0.059 µM (L1210; cell growth or viability; 24 h).
For `Nc1ccc(/C=C/C(=O)N2CCc3c(oc4c(-c5ccc(F)cc5)cc(-c5ccc(C(=O)N6C[C@@H]7[C@H](C6)C7(F)F)nn5)cc34)C2)cn1`, the IC50 was 0.39 to 1.08 µM (U2OS; cell growth or viability, CCK-8; 72 h).
`COc1ccc(-c2ccccc2)c(/C=N/NC(=O)c2ccccc2O)c1O` gave an IC50 of 1.46 µM (PANC-1; cell growth or viability; 72 h).
With `CN(C)C/C=C/C(=O)Nc1cc2c(Nc3ccc(F)c(Cl)c3)ncnc2cc1O[C@H]1CCOC1` the IC50 was 8.37 µM (SK-OV-3 (HER2-positive); cell viability, MTT; 72 h).
`COc1ccc(C[C@H]2COC(=O)[C@@H]2Cc2ccc(OCC(=O)N3CCC(C(=O)NO)CC3)c(OC)c2)cc1OC` gave an IC50 of greater than 5 µM (CCRF-CEM; cell growth or viability, CCK-8; 48 h).
For `COc1cc2oc3cc(O)c(OC)c(CC=C(C)C)c3c(=O)c2c(O)c1CC=C(C)C`, the IC50 was greater than 100 µM (H1L6.1c3; cell viability, MTT).
`COc1cc(C(=O)c2sc3cc(C)ccc3c2N)cc(OC)c1OC` has an IC50 of 0.009 µM (L1210; cell growth or viability).
`COC(=O)c1c(-c2ccc(OC)cc2)c2n(c1C(=O)OC)CCn1cccc1-2` gave an IC50 of 65.3 µM (PANC-1; cell growth or viability, MTT; 48 h).
For `COc1cccc(-c2cc3ccccc3[nH]2)c1`, the IC50 was 5.8 ± 1.1 µM (HEK293 NF-κB luciferase reporter; reporter gene, measured: NF-κB; 6 h, added: TNFα).
`O=C(O)c1cc(O)c2c(c1)C(=O)c1cccc(O)c1C2=O` gave an IC50 of 158 µM (MOLT-3; cell growth or viability, ATP luminescence; 24 h).
`CC1=CC(=O)C(C(C)C)=CC1=O` gave an IC50 of 10.5 µg/mL (WRL68; cell growth or viability, MTT; 24 h).
The IC50 of `COC(=O)c1c(-c2cc(OC)c(OC)c(OC)c2)c2n(c1C(=O)OC)CCn1cccc1-2` is reported as 66 µM (PANC-1; cell growth or viability, MTT; 48 h).
The IC50 of `Clc1ccc2cc(-c3ccccc3)[nH]c2c1` is reported as 9.8 ± 2.3 µM (HEK293 NF-κB luciferase reporter; reporter gene, measured: NF-κB; 6 h, added: TNFα).
`O=C(/C=C/c1ccc(O)cc1)c1ccc(Cl)cc1` gave an IC50 of 18.5 µM (WRL68; cell growth or viability, MTT; 72 h).
The IC50 of `Cn1nnc2c(C(N)=O)ncn2c1=O` is reported as 126 µM (PANC-1; cell proliferation, MTS; 24 h, added: 10 µM HNL).
With `COc1cc(C(=O)c2sc3cc(C)ccc3c2NC(=O)CBr)cc(OC)c1OC` the IC50 was 0.24 µM (L1210; cell growth or viability; 24 h).
`COC(=O)Nc1nc2ccc(C(=O)c3ccccc3)cc2[nH]1` gave an IC50 of 8.47 µM (LAPC4; AR transcriptional activity, antagonist, PSA promoter luciferase; 24 h).
With `C=CCc1ccc(OCc2nn(CN3CCCCC3)c(=S)o2)c(OC)c1` the IC50 was 19.5 µM (SK-OV-3; cell growth or viability, MTT; 72 h).
For `C=CCNC1=C2C[C@@H](C)C[C@H](OC)[C@H](O)[C@@H](C)/C=C(\C)[C@H](OC(N)=O)[C@@H](OC)/C=C\C=C(/C)C(=O)NC(=CC1=O)C2=O`, the IC50 was 0.001 to 0.003 µM and 0.0017 µM (LAPC4; AR transcriptional activity, antagonist, PSA promoter luciferase; 24 h).
`COc1ccc2c(NC(C)=O)c(C(=O)c3cc(OC)c(OC)c(OC)c3)oc2c1` has an IC50 of 0.06 µM (L1210; cell growth or viability; 24 h).
For `COc1ccc(/C=C(\C(=O)c2cc(C)[nH]c(=O)c2C(=O)N2CCCCC2)c2ccc(OC)c(C)c2)cc1C`, the IC50 was greater than 10 µM (human Fibroblast; cell growth or viability, MTT; 72 h).
`CC(C)C[C@H](NC(=O)[C@H](Cc1ccccc1)NC(=O)c1cnccn1)B(O)O` has an IC50 of 0.0061 µM (RPMI-8226; cell viability, ATP luminescence; 48 h, added: EGCG 0 nM).
For `C[C@H](O)c1cc(C(=O)N[C@@H](C)Cn2ccc(-c3ccc(C#N)c(Cl)c3)n2)n[nH]1`, the IC50 was 0.84 µM (LAPC4; cell growth or viability, ATP luminescence).
For `COC(=O)c1c(-c2ccccc2C)c2n(c1C(=O)OC)CCn1cccc1-2`, the IC50 was 67.9 µM (PANC-1; cell growth or viability, MTT; 48 h).
`CS(=O)(=O)N1CCN(Cc2cc3nc(-c4cccc5[nH]ncc45)nc(N4CCOCC4)c3s2)CC1` gave an IC50 of 0.018 ± 0.001 µM (IGROV-1; AKT Ser473 phosphorylation, inhibitor, electrochemiluminescent immunoassay; 2 h).
`COC(=O)c1c(-c2ccc(C)cc2)c2n(c1C(=O)OC)CCn1cccc1-2` gave an IC50 of 70.4 µM (PANC-1; cell growth or viability, MTT; 48 h).
For `Cc1cc(C)cc(/C=C(\C(=O)c2cc(C)[nH]c(=O)c2C(=O)N2CCCCC2)c2cc(C)cc(C)c2)c1`, the IC50 was greater than 10 µM (human primary dermal fibroblasts; cell proliferation, MTT; 72 h).
`C[C@H](Nc1ccc2c(c1)OCCn1cc(N3C(=O)OC[C@H]3C(F)F)nc1-2)C(N)=O` has an IC50 of 0.01 µM (SK-OV-3; Akt phosphorylation, inhibitor, in-cell western, measured: Akt pSer473; 1 h).
`COC(=O)c1c(-c2cccc(O)c2)c2n(c1C(=O)OC)CCn1cccc1-2` has an IC50 of 72.6 µM (PANC-1; cell growth or viability, MTT; 48 h).
For `C[C@H]1O[C@@H](O[C@H]2CC[C@@]3(C)[C@@H](CC[C@]4(C)[C@@H]3C=C[C@]35OC[C@@]6(CCC(C)(C)C[C@H]63)[C@@H](O)C[C@]54C)[C@]2(C)CO)[C@H](O)[C@@H](O[C@@H]2O[C@H](CO)[C@@H](O)[C@H](O)[C@H]2O)[C@H]1O`, the IC50 was 11.1 µM (L02; cell growth or viability; 24 h).
The IC50 of `CN1CCC2(CC1)C/C(=N\N=C\c1ccc(O)cc1)c1ccccc1O2` is reported as 1.15 to 10.1 µM (MCF7, HCT-116, PC-3; cell growth, MTT; range over cell lines).
For `Cn1cc(Nc2nccc(-c3ccc4c(c3)CN(C3COC3)CC[C@H]4NC(=O)c3cn(C(C)(C)C)nn3)n2)cn1`, the IC50 was 0.008 ± 0.009 µM (human primary monocytes; TNFα production; three donors, added: anti-human CD16 (FcγR stimulation)).
The IC50 of `CC(=O)c1cc2c(-c3ccccc3)cc(=O)oc2c(C)c1O` is reported as 42.5 ± 21.3 µM (NIH3T3; hyaluronan secretion; 72 h).
`O=C1C(=Cc2ccccc2)CN(C(=O)C#CC(=O)N2CC(=Cc3ccccc3)C(=O)C(=Cc3ccccc3)C2)CC1=Cc1ccccc1` has an IC50 of 2.43 µM (MOLT-4/C8 and CEM T-lymphocytes; cytotoxicity).
The IC50 of `CCCCCCCCCCCCCCCCCC[N+](C)(C)CCCS(=O)(=O)[O-]` is reported as 77 µM (SK-OV-3 eGFP-transfected; cell viability, MTT; 24 h).
`COc1ccc(OC)c(/C=C2\CC/C(=C\c3ccc(O)c(OC)c3)C2=O)c1` has an IC50 of 13.3 µM (MGC-803; cell growth or viability, MTT; 72 h).
For `CCCCCCCCCCCCCCCCNC[C@@H]1CSC(c2ccccc2)N1` (mixture of isomers), the IC50 was 60 to 84.5 µM (human Fibroblast; cell growth or viability, SRB; 48 h).
`C=CC(C)(C)c1cc2c(cc1O)OC[C@H](c1cc(-c3oc4cc(O)ccc4c3C(=O)c3cc(C(C)(C)C=C)c(O)cc3O)c(O)cc1O)C2` gave an IC50 of 15.6 µM (Hepa1c1c7; cell growth).
With `CO[C@@]12[C@H](COC(N)=O)C3=C(C(=O)C(C)=C(N)C3=O)N1C[C@@H]1N[C@@H]12` the IC50 was 0.901 µg/mL (HCT-15/ADM2-2; cell growth, XTT; 72 h).
`C(=C\c1ccccc1)/c1ccccc1` gave an IC50 of 180 µM (MOLT-3; cell growth or viability, ATP luminescence; 24 h).
The IC50 of `O=C1Nc2ccccc2/C1=N\NC(=O)c1ccccc1O` is reported as greater than 10 µM (PANC-1; cell growth or viability; 72 h).
`COc1cccc2c1C(=O)c1c(O)c3c(c(O)c1C2=O)C[C@@](O)(C(=O)CO)C[C@@H]3O[C@H]1C[C@H](N)[C@@H](O)[C@H](C)O1` gave an IC50 of 8.55 µg/mL (HCT-15/ADM2-2; cell growth, XTT; 72 h).
With `O=c1[nH]nc(O)c2c(-c3ccc(Cl)cc3Cl)c3n(c12)CCn1cccc1-3` the IC50 was 72.5 µM (PANC-1; cell growth or viability, MTT; 48 h).
With `COc1ccccc1C[C@@H](Oc1cccc2oc(-c3ccc(F)cc3)c(-c3ccc(OCCN4CCN(C)CC4)c(Cl)c3C)c12)C(=O)O` the IC50 was greater than 1.88 µM (NCI-H929; cell viability, MTT; 48 h, 10% CFS).
The IC50 of `CC(=O)OC[C@H]1O[C@@H]([S-])[C@H](OC(C)=O)[C@@H](OC(C)=O)[C@@H]1OC(C)=O.CCP(CC)CC.[Au+]` is reported as 0.4 ± 0.3 µM (RC-124 kidney epithelial; cell proliferation, crystal violet staining; 96 h).
With `C=CCc1ccc(O)c(-c2ccc(O)c(CC=C)c2)c1` the IC50 was 100 µM (GM12878; cell proliferation, MTS; 72 h, added: BLM 10 µM).
For `Nc1cc(COc2c(Cl)cc(C[C@H](N)C(=O)O)cc2Cl)c2oc(-c3ccccc3)nc2c1`, the IC50 was 15 µM (LN-229; cell growth or viability, ATP luminescence; 6 days).
The IC50 of `Cc1cc(=O)oc2c(C)c3c(cc12)C(=O)CC1(CCCCC1)O3` is reported as 362 ± 155 µM (NIH3T3; hyaluronan secretion; 72 h).
For `COc1ccc(C[C@H]2COC(=O)[C@@H]2Cc2ccc(OCCCCCCC(=O)NO)c(OC)c2)cc1OC`, the IC50 was 1.37 µM (CCRF-CEM; cell growth or viability, CCK-8; 48 h).
`FC(F)(F)Oc1ccc(-c2cc3ccccc3[nH]2)cc1` gave an IC50 of 6.5 ± 0.1 µM (HEK293 NF-κB luciferase reporter; reporter gene, measured: NF-κB; 6 h, added: TNFα).
`COc1cc(C(=O)c2sc3ccccc3c2NC(=O)CO[N+](=O)[O-])cc(OC)c1OC` has an IC50 of 0.31 µM (L1210; cell growth or viability; 24 h).
For `O=C(/C=C/c1ccc(O)c(CN2CCOCC2)c1)c1ccc(F)cc1`, the IC50 was 16.1 µM (WRL68; cell growth or viability, MTT; 72 h).
`COc1cc2ncnc(Nc3ccc(Cl)cc3F)c2cc1OC` has an IC50 of 0.09 ± 0.007 µM (H3255 (EGFR L858R); cell viability, Alamar Blue; 120 h).
The IC50 of `COc1cc(C(=O)c2oc3ccccc3c2NC(=O)CO[N+](=O)[O-])cc(OC)c1OC` is reported as 33.4 µM (L1210; cell growth or viability; 24 h).
`Cc1cccc(-c2c3n(c4c(=O)[nH]nc(O)c24)CCn2cccc2-3)c1` gave an IC50 of 65 µM (PANC-1; cell growth or viability, MTT; 48 h).
`COc1ccccc1-c1nccc(COc2ccccc2C[C@@H](Oc2ccnc3sc(-c4ccc(F)cc4)c(-c4ccc(OCCN5CCN(C)CC5)c(Cl)c4C)c23)C(=O)O)n1` gave an IC50 of 0.0091 µM (NCI-H929; cell viability, MTT; 48 h, 10% CFS).
With `CC(C)=CCC[C@]1(C)C=Cc2c(O)c3c(c(CC=C(C)C)c2O1)O[C@]12C(=C[C@@H]4C[C@H]1C(C)(C)O[C@@]2(C/C=C(/C)C(=O)O)C4=O)C3=O` the IC50 was 0.269 µM (LAPC4; AR transcriptional activity, antagonist, PSA promoter luciferase; 24 h).
